# Assay results pooled from the literature.
# A part holds a random share of what one study measured. Changes are numbered by the printed parent chain.

# Sample 1
# Target: Prothrombin, mature alpha-thrombin (F2, Homo sapiens, UniProt P00734)
# Method: aptamer microarray, sandwich
# Form: DNA with 2'F-ANA
# Sample: in vitro
# Tested at: 200 nM
# Notes: whole 15-mer aptamer, many near background
# With: Cy3 exosite-II aptamer, 400 nM
# Reading: higher = stronger binding
# Strand: GGTTGGTGTGGTTGG
Modification,mean fluorescence intensity [a.u.]
2'F-ANA at 2 3 5 8 12 14 15,65.6
2'F-ANA at 3 7 10 14,467
2'F-ANA at 2 3 6 9 10 11 12 14,250
2'F-ANA at 5 8 9 10 11 12 15,76
2'F-ANA at 4 5 6 9 12 14 15,52.5
2'F-ANA at 1 7 9 10 14,44.4
2'F-ANA at 3 7 10 12 14,548
2'F-ANA at 5 6 8 10 11 15,45.5
2'F-ANA at 1 2 3 7 8 10 11 12,137
2'F-ANA at 1 2 3 5 10 11 13 15,97.8
2'F-ANA at 1 2 3 4 5 10 12,52.4
2'F-ANA at 1 2 5 6 9 12 13 14,58.3
2'F-ANA at 6 8 9 10 11 12 13 15,151
2'F-ANA at 3 4 5 7 10 11 12 15,63.2
2'F-ANA at 1 5 6 12 14,45.8
2'F-ANA at 1 2 3 5 6 8 12 13,95.7
2'F-ANA at 1 2 3 4 5 6 9 14,63.9
2'F-ANA at 2 3 5 6 7 9 10 13 14 15,50.3
2'F-ANA at 1 3 4 5 6 7 8 9 10 11 13,50.1
2'F-ANA at 3 4 5 8 9 11 12 14,56.3
2'F-ANA at 1 2 6 9 10 11 12 13 14 15,60.2

# Sample 2
# Target: ABI1, truncated, D143A, DHFR fusion (Arabidopsis thaliana)
# Method: DHFR PCA, deep sequencing
# Sample: yeast
# Notes: methotrexate growth selection, single substitutions
# With: (+)-ABA 17 µM
# Reference: wild-type fitted maximum
# Reading: higher = stronger binding
# Starting sequence: PYL1, truncated, DHFR fusion (Arabidopsis thaliana); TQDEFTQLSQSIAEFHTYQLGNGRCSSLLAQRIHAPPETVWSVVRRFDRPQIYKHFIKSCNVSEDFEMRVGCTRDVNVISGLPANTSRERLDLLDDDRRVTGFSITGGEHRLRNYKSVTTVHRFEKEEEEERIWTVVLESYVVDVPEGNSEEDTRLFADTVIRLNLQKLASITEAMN; partner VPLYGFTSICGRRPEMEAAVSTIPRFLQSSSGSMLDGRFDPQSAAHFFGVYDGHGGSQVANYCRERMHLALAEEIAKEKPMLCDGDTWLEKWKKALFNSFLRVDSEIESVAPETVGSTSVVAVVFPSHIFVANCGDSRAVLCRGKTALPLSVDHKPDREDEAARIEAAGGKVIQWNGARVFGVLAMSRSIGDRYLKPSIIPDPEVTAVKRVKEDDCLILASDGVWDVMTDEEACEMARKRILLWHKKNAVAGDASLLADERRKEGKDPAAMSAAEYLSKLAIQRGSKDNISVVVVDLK
Change,relative binding score [%]
S150N,86.5
N85E,84.8
L82R,-0.627
T135R,17
E131F,72.9
V62G,0.613
S140G,-4.44
T154W,-8.53
H110C,-1.13
A170D,8.96
Q19R,85.5
E151N,73.5
L156A,83
T154I,40.1
N85T,92.6
V161S,5.28

# Sample 3
# Target: RING finger protein unkempt homolog, zinc fingers 1-6, GST-SBP tag (UNK, Homo sapiens, UniProt Q9C0B0, residues 30-357)
# Method: RNA Bind-n-Seq
# Form: RNA
# Sample: in vitro
# Tested at: not given
# Notes: RNA with constant flanks, ends assumed
# Reference: input RNA pool
# Reading: higher = stronger binding
# Shared flanks, not repeated: GGGAGUUCUACAGUCCGACGAUC … CAACAGAGGAUUGAGCAUCA
# Target sequence (chain): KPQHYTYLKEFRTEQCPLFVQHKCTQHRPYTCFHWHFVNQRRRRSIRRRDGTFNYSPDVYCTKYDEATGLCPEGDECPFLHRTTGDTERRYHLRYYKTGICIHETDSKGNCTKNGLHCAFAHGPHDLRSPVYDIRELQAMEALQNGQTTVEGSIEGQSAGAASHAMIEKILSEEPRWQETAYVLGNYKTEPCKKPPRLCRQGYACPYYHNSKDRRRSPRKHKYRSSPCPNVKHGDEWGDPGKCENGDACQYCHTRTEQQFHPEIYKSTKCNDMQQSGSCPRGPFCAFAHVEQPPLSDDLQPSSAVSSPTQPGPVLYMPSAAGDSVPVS
Strand,bound/input enrichment
AAUGAAACUGCAGAAAAAAAUUUGGGAGUCCUGGCAGAUGAAGACAAUACAUUGCAACAGAACCGCAGCAGUAAUAUCAGUUACAGCAAUGCAAUGCAGAAAGAAAUCACACUGCCUUCA,0.151 ratio
AAGAAUUUCAAAGGUACUAUUGAAGAACUGGCUUCAAAUCAGUAUGUGAUUAAUGGAGAAGCCGCUAUUCUGGAUUCUACAACCAUUGAAAUCUCAGAGCUUCCCAUCCGAACGUGGACU,0.19 ratio
GUGACAAUUCCAGAGAGCGCACAUAUAUUCACCAGCUUUUAUGCUAAAACAAAAUCGCUAUCCGUUAAUCCAGCACUCUUUUUAAACCCUGAAGACUAUAACCAUCUAAUGGGUUAUGAC,0.215 ratio
GGUGGCGGCCAGUGGCUGAACUCCAGUUGCGCUUGGUCAGAAUCUUCUCAAUUGAAUAAGACCCGAAGUAUCAGACGGCGAGAUUCCUGUCUAAAUUCCAAGACAAAGGUUAUGCCUACU,0.0991 ratio
AAAAGGAAAGAGCCAAAUAAAAGCAUCAAGCAUUGCACAGUUCUCUCCAAUAACACCGAUCAUCUCUUACUGAAUUUAACACUGUCUGAUAUCAUGGUCUCCCUGGCAAAUGCGUCAACU,0.0729 ratio
AAAGCCCUGUGAAGGUCUACUGACCGCUCACUAUUGUCUGGUAUCUGUAAACACUUCUGUUCCGUCCUUUCAUGGUAUAAUUGAUGUUCUUUAAAACUGUCAGUGUAAAACAGGGCUUAU,0.197 ratio
CGGUCUCUUCCAUCUCCUUCCUCUGCUCACUUGGCUGCUUUAAGUGUUGCAGUUGUUGAGUCCGCAAAAGAACAAGGAAUAACAGAUGAUGACCUCAGAAUCCGCCAGGACAUUGUGGAG,0.0877 ratio
GAUUGCUGGCGAGGAGGAGGAGUUCAUGUAGUGUUUGAGUGAAGCUUGAGUCACCAUGAGCCGCCGUUUAGGAAAAGAAAAAGACUCUAAAGAGAAAGACCCCAAAGUACCGUCUGCCAA,0.336 ratio
UGUACAACAUGUCUUUGUAAUUUAUAGAAACAAGUCUAGGUGUUGAUACCUUGUGGUCUAACCGAUGUGGAUACCAUUCAUUUUACUUGAAAUUUUGUUGUCUACUUUAAGUGUAUUUGC,0.282 ratio
GGGGUUCCUAGUACUGCAAUUCGGGAAAUUUCUCUAUUAAAGGAACUUCGUCAUCCAAAUACCGUCAGUCUUCAGGAUGUGCUUAUGCAGGAUUCCAGGUUAUAUCUCAUCUUUGAGUUU,0.1 ratio
CUGAAGGAAACAGCAUUUAAAUUUAAAGCCCUGAAGAAGGUUGCACAGUUGGCAGUUAUAAACCGCCCCGAAAAGGCUUUUUGGAACUGGGUAGAAAAUUAUCCGGAUGAAUUUACAAAG,0.213 ratio

# Sample 4
# Target: Interferon regulatory factor 3, full length, phosphomimetic (IRF3, Homo sapiens, UniProt Q14653, residues 1-427, S386D/S396D/S398D/S402D/T404D/S405D)
# Method: protein-binding microarray
# Form: double-stranded DNA, one strand shown
# Sample: in vitro
# Tested at: 2540 nM top
# Notes: 60-bp whole probe
# With: salmon DNA 0.4 mg/ml
# Reference: random background probes
# Reading: higher = stronger binding
# Shared flanks, not repeated: GCCTAGCAC … GTCTTGATTCGCTTGACGCTGCTG
# Target sequence (chain): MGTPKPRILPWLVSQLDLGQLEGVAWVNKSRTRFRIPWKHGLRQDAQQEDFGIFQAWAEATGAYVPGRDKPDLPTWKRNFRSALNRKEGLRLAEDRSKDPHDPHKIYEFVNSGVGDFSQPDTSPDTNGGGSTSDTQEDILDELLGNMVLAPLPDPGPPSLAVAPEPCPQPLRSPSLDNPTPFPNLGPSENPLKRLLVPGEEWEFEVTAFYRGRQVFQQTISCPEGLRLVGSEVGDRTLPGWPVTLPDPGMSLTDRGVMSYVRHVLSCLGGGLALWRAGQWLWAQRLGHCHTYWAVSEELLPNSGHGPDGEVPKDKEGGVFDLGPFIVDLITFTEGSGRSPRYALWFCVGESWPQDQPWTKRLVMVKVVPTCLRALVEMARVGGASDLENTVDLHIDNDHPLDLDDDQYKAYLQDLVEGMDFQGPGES
Strand,fitted relative affinity [z-score]
TTAGGACTGGACACTGTGTTAGTGCTA,-0.632
TCACACTTCCTTCTGCCACTGTGCTAG,1.03
GTAGGTATCCTTCTCCTTTAGTGCTAG,7.29
TTAGAACTGGGGTATCGATTGGTGCTA,-0.693
TGGTCTTTCCACTTTCTTTTGTGCTAG,1.53
TTAGGTATCGACACTAGGTTAGTGCTA,0.28
TTAGATCTCAGACTAGATTAGTGCTAG,0.126
TGTGATCTCATATGAAAACAGTGCTAG,0.458
TTATGTTTCCTACTGCTTTAGTGCTAG,4.07
TTAGCTATCGGGTATCGATTAGTGCTA,0.0494
GGATGAGTCACTTCTGGTGCTGTGCTA,-0.236
TTAGAACTGAGTTTCGATTCGTGCTAG,4.06
TTAGATCTCATACTGGATTAGTGCTAG,0.31
GACGATTTCGGGTATCGATACGTGCTA,2.19
GACGGTTTCCTACCGCTGACGTGCTAG,4.26
GTCGATATCAGTATCGAGACGTGCTAG,1.9
TCACAGCTCCCTTTCTCACTGTGCTAG,2.16
CACGATTTCAGTTCCGAGACGTGCTAG,2.48
GACGGTTTCGACGATCGGGACGTGCTA,1.81
TGAGGTTCCGGTTTCGGTTAGTGCTAG,6.97
CAAATTGTCTCTGTCCCTGTGTGCTAG,1.53
TTTCATATATATATGAATATGTGCTAG,3.12
TCATCTTGCAGTATGGAACTGTGCTAG,1.03
GACGGTATCGGTATTGGGACGTGCTAG,3.96

# Some of these lines once more (sample 2):
Change,relative binding score [%]
V62G,0.613
S140G,-4.44
T154W,-8.53
H110C,-1.13
A170D,8.96
Q19R,85.5
E151N,73.5
